Measured values collected from several papers.
Each line is one published result; not all experiments were run side by side. “And” joins repeats or separate records; there may be more than shown. ± gives the spread as reported.

Compound	test	system	setting	how to read	Tmax
OCC1=C[C@@H](O)[C@@H]2C=CO[C@@H](O[C@@H]3O[C@H](CO)[C@@H](O)[C@H](O)[C@H]3O)[C@H]12		Sprague-Dawley rat, internal jugular vein plasma	oral, 500 mg/kg Eu extract, dosed as Eu extract		0.42 ± 0.14 h
C=CC(=O)N1CCC(Oc2cc3c(Nc4ccc(Cl)c(Cl)c4F)ncnc3cc2OC)CC1		Sprague-Dawley rat, male, plasma	oral, 2 mg/kg, 1 weeks pretreatment, together with: Schisandrin A 20 mg/kg daily pretreatment		0.28 ± 0.17 h
O=C1c2ccncc2C(=O)c2c1[nH]c1ccccc21		Sprague-Dawley rat, female, plasma	intravenous, 5 mg/kg		0.08 h
Cc1cc(-c2ccc3cc[nH]c(=O)c3c2)ccc1O[C@H]1O[C@H](CO)[C@@H](O)[C@H](O)[C@@H]1O		Sprague-Dawley rat, male, plasma	intravenous, 3 mg/kg		0.083 h
CC[C@H](C)[C@H](NC(=O)[C@@H]1CCCN1C(=O)CNC(=O)[C@H](Cc1ccccc1)NC(=O)[C@H](CC(N)=O)NC(=O)[C@H](CC(N)=O)NC(=O)[C@H](CO)NC(=O)[C@H](CO)NC(=O)[C@H](Cc1c[nH]cn1)NC(=O)[C@@H](NC(=O)[C@H](CC(C)C)NC(=O)[C@H](Cc1ccccc1)NC(=O)[C@H](CC(N)=O)NC(=O)[C@H](C)NC(=O)[C@H](CC(C)C)NC(=O)[C@H](CCCNC(=N)N)NC(=O)[C@H](CCC(N)=O)NC(=O)[C@@H](NC(=O)[C@H](C)NC(=O)[C@@H]1CSSC[C@H](NC(=O)[C@@H](N)CCCCN)C(=O)N[C@@H](CC(N)=O)C(=O)N[C@@H]([C@@H](C)O)C(=O)N[C@@H](C)C(=O)N[C@@H]([C@@H](C)O)C(=O)N1)[C@@H](C)O)C(C)C)C(=O)N[C@@H](CC(C)C)C(=O)N1CCC[C@H]1C(=O)N1CCC[C@H]1C(=O)N[C@H](C(=O)N[C@@H](CC(N)=O)C(=O)N[C@H](C(=O)NCC(=O)N[C@@H](CO)C(=O)N[C@@H](CC(N)=O)C(=O)N[C@H](C(=O)N[C@@H](Cc1ccc(O)cc1)C(N)=O)[C@@H](C)O)C(C)C)[C@@H](C)O	ELISA	Sprague-Dawley rats, serum	subcutaneous, 30 µg/kg		0.5 h
O=C(O)c1cc(O)c(O)c(O)c1		rat, plasma	oral, 1000 mg/kg extract, possible metabolite or extract component		1.19 ± 0.23 h
CCCc1c(-c2ccc(O)cc2)nn(-c2ccc(O)cc2)c1-c1ccc(O)cc1	item: total aglycone	rat, Long-Evans, female, serum	subcutaneous, 2 mg/kg single dose		1 h
N=C(N)NCCNC(=O)C1(Nc2ccccc2)CCN(Cc2ccccc2)CC1		female Sprague-Dawley rats, plasma	oral gavage, 50 mg/kg, first sampling point		0.0833 h
CNC(=O)c1cccc(-c2ccc([C@@H](O)[C@H]3O[C@H](CO)[C@@H](O)[C@H](O)[C@@H]3O)c(C)c2)c1		male Sprague-Dawley rat, plasma	oral, 10 mg/kg, group mean		0.667 h
CN1CCC[C@H](CN2c3ccccc3Sc3ccccc32)C1.Cl		Wistar rat female, skin	oral, 16 mg/kg		8 h
Cc1cccc(CNC(=O)c2cn(CCNC(=O)c3ccccc3S)c3cc4c(cc3c2=O)OC(F)(F)O4)n1		Sprague-Dawley rat, male, whole blood	intramuscular, 10 mg/kg of parent drug		0.72 ± 0.64 h
COC(=O)C1=CO[C@@H](O[C@@H]2O[C@H](CO)[C@@H](O)[C@H](O)[C@H]2O)[C@@H]2C(CO)=CC[C@H]12		rat, plasma	oral, 500 mg/kg Eu extract, dosed as Eu extract		0.5 h
CSc1ccccc1C(=O)NCCn1cc(C(=O)NCc2cccc(C)n2)c(=O)c2cc3c(cc21)OC(F)(F)O3		Sprague-Dawley rat, male, plasma	intravenous, 5 mg/kg of parent compound		0.083 h
O=C(O)C1=CO[C@@H](O[C@@H]2O[C@H](CO)[C@@H](O)[C@H](O)[C@H]2O)[C@@H]2C(CO)=CC[C@H]12		Sprague-Dawley rat, internal jugular vein plasma	oral, 500 mg/kg Eu extract, dosed as Eu extract		1.33 ± 0.29 h
CCCCCCCCc1ccc(CCC(N)(CO)CO)cc1	LC-MS/MS	Sprague Dawley rat, male, plasma	oral, 1 mg/kg amiselimod, single		8 h
CC(C)c1nc(N(C)S(C)(=O)=O)nc(-c2ccc(F)cc2)c1/C=C/[C@@H](O)C[C@@H](O)CC(=O)O		Wistar albino rat, both sexes, plasma	oral, 20 mg/kg		2.5 h and 3 h and 5.5 h and 1 h
C1=C/COCc2cc(ccc2OCCN2CCCC2)Nc2nccc(n2)-c2cccc(c2)COC/1		Sprague-Dawley rats, male, plasma	oral, dose not given, together with: isavuconazole	relative to: isavuconazole alone	15 % decrease
CCc1c(-c2ccccc2)c(-c2ccccc2)nn1-c1ccccc1-c1cccc(OCC(=O)O)c1		Sprague-Dawley rat	intravenous, dose not given		0.083 h
Cc1cccc(CNC(=O)c2cn(CCNC(=O)c3ccccc3Sc3c([N+](=O)[O-])ncn3C)c3cc4c(cc3c2=O)OC(F)(F)O4)n1		Sprague-Dawley rat, male, whole blood	intramuscular, 10 mg/kg of parent drug		0.083 h
C=CC(=O)N1CCC([C@@H]2CCNc3c(C(N)=O)c(-c4ccc(Oc5ccccc5)cc4)nn32)CC1		Sprague-Dawley rats, plasma	oral, 16 mg/kg, together with: posaconazole 40 mg/kg		1.15 ± 1.06 h
CCc1cc(C(=O)NC)c2nccc(N3CCc4c(cc(Cn5ccnc5)cc4-c4cn(C)nc4C(F)(F)F)C3=O)c2c1		Sprague Dawley rat, male, bile duct-cannulated, plasma	oral, 50 mg/kg		2.3 h
O=C(Nc1ccc(OC(F)(F)Cl)cc1)c1cnc(N2CC[C@@H](O)C2)c(-c2ccn[nH]2)c1		Sprague-Dawley rat, male, plasma	oral, 8 mg/kg		2.63 ± 1.11 h
CNC(=O)c1cccc(-c2ccc(O[C@H]3O[C@H](CO)[C@@H](O)[C@H](O)[C@@H]3O)c(C)c2)c1		Sprague-Dawley rat, male, plasma	oral, 10 mg/kg		0.25 h and 2 h
C=CC(=O)N1CCC[C@@H](n2nc(-c3ccc(Oc4ccccc4)cc3)c3c(N)ncnc32)C1		male Wistar rat, liver	oral, 50 mg/kg		0.75 ± 0.01 h
CCOc1c([C@H](C)n2nc(C)c3c(N)ncnc32)cc(Cl)c(F)c1[C@@H]1CNC(=O)C1		Sprague-Dawley rat, plasma	oral gavage, 2.0 mg/kg		~2 h
O=C1c2ccccc2C(=O)N1CCCN1CCN(C(c2ccc(F)cc2)c2ccc(F)cc2)CC1		Sprague-Dawley rat, male, whole blood	oral, 10 mg/kg		1.01 h

Some of these lines once more:
Compound	test	system	setting	how to read	Tmax
CC(C)c1nc(N(C)S(C)(=O)=O)nc(-c2ccc(F)cc2)c1/C=C/[C@@H](O)C[C@@H](O)CC(=O)O		Wistar albino rat, both sexes, plasma	oral, 20 mg/kg		2.5 h and 3 h and 5.5 h and 1 h
C=CC(=O)N1CCC[C@@H](n2nc(-c3ccc(Oc4ccccc4)cc3)c3c(N)ncnc32)C1		male Wistar rat, liver	oral, 50 mg/kg		0.75 ± 0.01 h
CCc1cc(C(=O)NC)c2nccc(N3CCc4c(cc(Cn5ccnc5)cc4-c4cn(C)nc4C(F)(F)F)C3=O)c2c1		Sprague Dawley rat, male, bile duct-cannulated, plasma	oral, 50 mg/kg		2.3 h
COC(=O)C1=CO[C@@H](O[C@@H]2O[C@H](CO)[C@@H](O)[C@H](O)[C@H]2O)[C@@H]2C(CO)=CC[C@H]12		rat, plasma	oral, 500 mg/kg Eu extract, dosed as Eu extract		0.5 h
